Assay results pooled from the literature.
Parts stem from different laboratories: compare values within a part only.

Block 1
Target: Sal-like protein 4, full length isoform A (SALL4, Homo sapiens, UniProt Q9UJQ4, residues 1-1053)
UniProt Q9UJQ4, sequence (whole entry, looked up): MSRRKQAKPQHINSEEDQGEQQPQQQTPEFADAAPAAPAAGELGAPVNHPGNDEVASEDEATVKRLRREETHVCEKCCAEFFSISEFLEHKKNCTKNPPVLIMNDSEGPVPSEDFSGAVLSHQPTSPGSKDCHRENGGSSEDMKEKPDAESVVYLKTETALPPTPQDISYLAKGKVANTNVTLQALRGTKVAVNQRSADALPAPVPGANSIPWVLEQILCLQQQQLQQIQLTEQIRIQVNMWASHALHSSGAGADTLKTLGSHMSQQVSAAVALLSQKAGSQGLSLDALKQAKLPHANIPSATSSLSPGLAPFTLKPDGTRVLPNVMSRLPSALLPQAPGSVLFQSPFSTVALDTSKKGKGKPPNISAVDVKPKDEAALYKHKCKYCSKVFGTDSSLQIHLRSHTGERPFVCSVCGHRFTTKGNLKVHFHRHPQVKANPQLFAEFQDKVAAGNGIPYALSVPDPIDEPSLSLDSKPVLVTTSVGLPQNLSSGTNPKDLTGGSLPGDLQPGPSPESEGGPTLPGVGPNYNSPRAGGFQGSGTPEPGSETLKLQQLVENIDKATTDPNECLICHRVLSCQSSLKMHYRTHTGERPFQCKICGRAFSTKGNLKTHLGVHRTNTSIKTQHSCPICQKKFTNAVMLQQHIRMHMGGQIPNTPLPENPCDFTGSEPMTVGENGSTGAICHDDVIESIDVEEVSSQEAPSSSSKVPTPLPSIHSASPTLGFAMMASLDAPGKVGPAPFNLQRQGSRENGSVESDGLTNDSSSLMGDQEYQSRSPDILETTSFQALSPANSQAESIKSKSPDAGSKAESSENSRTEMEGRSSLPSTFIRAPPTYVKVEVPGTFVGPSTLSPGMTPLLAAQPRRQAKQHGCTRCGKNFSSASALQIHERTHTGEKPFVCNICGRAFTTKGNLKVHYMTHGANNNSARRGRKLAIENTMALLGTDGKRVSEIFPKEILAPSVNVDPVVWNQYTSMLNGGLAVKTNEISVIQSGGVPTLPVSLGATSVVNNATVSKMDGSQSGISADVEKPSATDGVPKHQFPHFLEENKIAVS
Technique: universal PBM
Form: double-stranded DNA, one strand shown
Medium: in vitro
Tested at: 600 nM
Setting: 8-mer, flanks averaged, mean of replicates
Direction: higher = stronger binding
Measurement: E-score
CAATATCA: 0.357
ACCAGGTC: -0.153
AGAAGGGG: -0.271
TGCATGCA: 0.185
ACCGAAAT: 0.0892
GCAATACC: 0.0524
CGCATGCC: -0.0858
AAACGATC: 0.122
GGACCGGA: -0.41
GTCGGAAC: -0.217
GCTCTTCC: -0.203
CAGTACGA: 0.089
AGTTTTAA: 0.282
AGTGGCTA: -0.0712
CCGGCTGA: -0.336
ATAGGCTC: 0.0342
CAAATCGA: 0.168
GAAAGGAC: 0.0717
ACGGATCT: -0.0889
CTCCTCAG: -0.169
CGAATAAG: 0.185
AACGTACT: 0.0438
AGTTGCGA: 0.0704

Block 2
Target: PABPC1L2, full length, GST fusion (mouse, UniProt A0ABA7IW68)
Technique: RNAcompete
Form: RNA
Medium: in vitro
Tested at: 20 nM
Setting: 7-mer, probes averaged, single round
Baseline: mean of 7-mers
Direction: higher = stronger binding
Measurement: 7-mer Z-score
Target sequence (chain): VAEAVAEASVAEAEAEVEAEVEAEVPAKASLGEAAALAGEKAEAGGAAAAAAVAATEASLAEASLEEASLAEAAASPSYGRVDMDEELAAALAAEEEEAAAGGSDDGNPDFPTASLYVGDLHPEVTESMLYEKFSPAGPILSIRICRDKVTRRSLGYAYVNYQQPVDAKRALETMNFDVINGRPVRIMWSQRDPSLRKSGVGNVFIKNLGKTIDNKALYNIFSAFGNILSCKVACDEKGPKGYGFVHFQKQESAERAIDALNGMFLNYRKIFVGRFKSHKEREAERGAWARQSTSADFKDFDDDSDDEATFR
GCGAAAG: 0.177
CGAAGCG: 0.00254
UGUUAAC: -0.275
CGGCAUA: -0.115
CGAAUCA: 0.109
UAGAUGG: -0.0228
CAUUGUG: -0.22
AGUUUGG: -0.309
AUUACGC: -0.204
UGCGAAU: -0.115
ACUAACG: -0.0899
AGGAGGA: 0.35
AUGAAGC: 0.00798
CGAGAGC: -0.0047
UCUUAGC: -0.373
UUUGUUU: -0.438
UGCCAGC: -0.2
GGGCCGC: -0.0989
CCAAUGG: -0.199

Block 3
Target: Histone acetyltransferase KAT6A, winged helix 2, GST fusion (KAT6A, Homo sapiens, UniProt Q92794, residues 85-181)
Technique: protein binding microarray
Form: double-stranded DNA, one strand shown
Medium: in vitro
Tested at: not given
Setting: 8-mer, flanks averaged, mean of 2 arrays, mostly near background
Baseline: not given
Direction: higher = stronger binding
Measurement: E-score
Target sequence (chain): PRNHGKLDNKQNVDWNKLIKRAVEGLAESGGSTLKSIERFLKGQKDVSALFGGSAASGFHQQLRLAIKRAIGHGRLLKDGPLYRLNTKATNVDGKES
AATTCACA: -0.0189
AAAACGAC: 0.0542
AGTTCCTC: -0.173
CAAAGTTC: -0.0465
AGCTCCCA: -0.139
TACGGGCA: 0.05
AAGGAGCC: 0.0357
ATCGTTGA: -0.0413
CCTTATAC: -0.00428
GCTCGGCA: 0.0588
ACCCGTCC: -0.0537
CACACATC: -0.0494
ATTACTTA: -0.162
AGCTTCAG: -0.111
ACGGTGAG: 0.0897
TGCCTGAA: -0.0591
GAAGATAC: 0.0038
CGGTGATA: -0.00668
AGCCCGTC: -0.0726
ACGAATTG: -0.0433
GATCCTAC: 0.0163
CGCGAGCG: 0.137
CAAATATG: -0.161
TACCAACA: 0.0292
AGCGGCTC: 0.107

Block 4
Target: RING finger protein unkempt homolog, zinc fingers 1-6, GST-SBP tag (UNK, Homo sapiens, UniProt Q9C0B0, residues 30-357)
UniProt Q9C0B0, sequence (30-357, looked up): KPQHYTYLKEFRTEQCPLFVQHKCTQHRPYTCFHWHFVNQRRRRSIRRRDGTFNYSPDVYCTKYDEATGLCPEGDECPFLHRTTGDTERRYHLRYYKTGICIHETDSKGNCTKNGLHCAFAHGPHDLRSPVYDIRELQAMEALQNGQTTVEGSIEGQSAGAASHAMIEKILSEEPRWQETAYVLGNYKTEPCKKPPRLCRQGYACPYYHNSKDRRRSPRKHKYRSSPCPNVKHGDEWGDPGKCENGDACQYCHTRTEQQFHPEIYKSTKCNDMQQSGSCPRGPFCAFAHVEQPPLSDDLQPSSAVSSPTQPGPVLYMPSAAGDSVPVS
Technique: RNA Bind-n-Seq
Form: RNA
Medium: in vitro
Tested at: not given
Setting: RNA with constant flanks, human and mouse sites, ends assumed
Baseline: input RNA pool
Direction: higher = stronger binding
Measurement: bound/input enrichment
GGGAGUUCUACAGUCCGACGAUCAAAGAUCCUAACAUGAAAGGUGCAAUGCUUACAAACACUGGAAAAUAUGCAAUACCAACUAUAGAUGCAGAGGCCUAUGCAAUCGGGAAGAAAGAGAAACCACCCUUCUUACCAGAGGAGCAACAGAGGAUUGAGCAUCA: 0.191 ratio
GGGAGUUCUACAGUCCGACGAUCGUGGUUCUGGUCACCGUCGCUGCCAUUGUUAGAAAGAUUUUUAAUGAUAUGCGGGGUGUCGUAGCUAAACAACGGACACAUACAAGAAAACAACAAUUUGAACAUGGAGAGUUGGUUUACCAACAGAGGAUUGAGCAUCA: 0.723 ratio
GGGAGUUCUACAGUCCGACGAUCUCAUUAAAUUAGGAUAUUUUUAUUAUUUUUAAAGAAAAUGUAUAACUCCAUGCUGUCAGUCAUCCUCAGCAACUCAGGCACUGGCUGCCUCUCCACGUCAGGGCAGGCCCCACUUCCCCUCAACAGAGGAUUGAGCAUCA: 6.78 ratio
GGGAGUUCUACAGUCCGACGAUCACUAAUGCAGUGAUCGCCGGCUUGAUAGUGUUGGAAGGAUUAAAGAUUUUAUCUGGAAAAAUAGACCAGUGUAGAACUAUUUUUUUGAAUAAGCAGCCAAACCCAAGAAAGAAGCUCUUGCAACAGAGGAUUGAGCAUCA: 1.17 ratio
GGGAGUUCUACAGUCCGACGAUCGGUUUCCAUGGAGAUUGUCUCACUUUGACAAAGAUUAUUGAAGCAAGAUUAAAGAUGUACAAGCAUUCCAAUAACAAGGCCAUGACAACGGGGGCGAUUGCUGCAAUGCUGUCUACCAUCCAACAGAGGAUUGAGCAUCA: 0.154 ratio
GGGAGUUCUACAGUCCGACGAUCCGACAUGUCCUCACCUACAUGGAGGAUGCAGUGUGCCAGCUGCUAGAAAACAGGGAAGAUAUUAGCCAAUAUGGAAUUGCCAGGUUCUUCACUGAAUAUUUUAACAGUGUAUGCCAGGGACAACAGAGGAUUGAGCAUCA: 0.694 ratio
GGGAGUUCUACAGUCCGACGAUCAUCACUACGUGGAGGGGAAAGAGGCAGCUCCCACCUGGCACCCAUUGCACAUAGGCUCCCCAGGAGGACAGAUCAUCAUCCACGGCUCACCUGUGCCUGGGCACAUCUUGGAGAGCUUGUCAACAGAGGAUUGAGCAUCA: 0.119 ratio
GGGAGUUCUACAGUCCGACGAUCACCUUUGACCAGGCCACGGGAGGGACCGCGCAGUUUGAAGCACACUCUGAUGCUCAGGCUCUAGUUCUCUUAGAUGUCACACCUGACCAGUCAAUGGUGGAUGAGGGCAUGGCUCGGGAACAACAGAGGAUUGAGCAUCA: 0.169 ratio
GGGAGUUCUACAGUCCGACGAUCGAAUUCAUGCAUGAGACCCAUGAUGGAGUCCAGGAUAUGGCUUGUGAUACUUUCAUUAAAAUAGCCCAAAAAUGCCGCAGGCAUUUCGUUCAGGUUCAGGUUGGAGAAGUGAUGCCAUUUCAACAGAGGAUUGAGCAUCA: 0.55 ratio
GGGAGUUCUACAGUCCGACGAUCUAGUUGCGCUGUUUGGAACAAACAUGGAUAUUGUUGAGCCCACUGCAUGAAGCAAAAGUAUGGGGAAGAAGACCAUUAGUGAAACAGUUCCGUAGUAGUGGUUAGUCCACUGAGAAUGUGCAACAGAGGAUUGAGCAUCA: 1.25 ratio
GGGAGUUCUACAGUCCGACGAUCGCAUGCUUCCAGAAGAGUGGUGCAUCAGUGGUUGCUAUUCGAAAAUACAUCAUCCAUAAGUAUCCUUCUCUGGAGCUGGAGAGAAGGGGUUAUCUCCUUAAACAAGCACUGAAAAGAGAACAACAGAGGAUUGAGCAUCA: 0.199 ratio

Block 5
Target: Ras GTPase-activating protein-binding protein 1, full length (G3BP1, Homo sapiens, UniProt Q13283)
UniProt Q13283, sequence (whole entry, looked up): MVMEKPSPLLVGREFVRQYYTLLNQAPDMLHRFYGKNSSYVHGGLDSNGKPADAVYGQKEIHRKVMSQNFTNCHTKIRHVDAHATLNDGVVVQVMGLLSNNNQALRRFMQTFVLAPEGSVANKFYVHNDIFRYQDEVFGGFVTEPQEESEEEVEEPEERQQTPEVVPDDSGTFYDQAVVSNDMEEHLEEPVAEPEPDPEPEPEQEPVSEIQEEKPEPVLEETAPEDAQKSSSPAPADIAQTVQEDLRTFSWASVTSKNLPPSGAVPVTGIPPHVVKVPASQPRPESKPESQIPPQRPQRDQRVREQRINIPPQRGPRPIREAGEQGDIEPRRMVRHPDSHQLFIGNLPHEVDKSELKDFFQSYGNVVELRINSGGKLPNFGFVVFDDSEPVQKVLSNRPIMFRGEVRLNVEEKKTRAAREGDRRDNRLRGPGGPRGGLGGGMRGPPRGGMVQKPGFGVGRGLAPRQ
Technique: RNA Bind-n-Seq
Form: RNA
Medium: in vitro
Tested at: 200 nM
Setting: whole 134-nt RNA, ends assumed
Together with: 150 mM LiCl
Baseline: input library
Direction: higher = stronger binding
Measurement: log2 enrichment
All molecules: 7-deaza-guanosine replaces G
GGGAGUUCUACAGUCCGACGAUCUCAAGUCCUGUGCUACACAUCGUAUGUACCGAAUCGGGUUUGGGAAAGGGUGGGAAAGUAUUAUGUUACGCCGUUCGGAUCUGCACUUCCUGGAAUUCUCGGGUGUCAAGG: -0.953
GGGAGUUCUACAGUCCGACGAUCUUGGCUACAAUGCAGAGACACAGAAACUACUAUGCAAGAAUGGGGAAACGCUGCUAGGAGCCGUGAACUUCUUUGUCUCUAGCAUCAACAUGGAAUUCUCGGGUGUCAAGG: -0.691
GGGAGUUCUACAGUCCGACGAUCCUCAAGUCCUGUGCUACACAUCGUAUGUACCGAAUCGGGCCGGGCCGGGCCGGAAAGUAUUAUGUUACGCCGUUCGGAUCUGCACUUCCAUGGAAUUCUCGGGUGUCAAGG: 0.789
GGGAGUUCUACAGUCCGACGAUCAGUCCUGUGCUACACAUCGUAUGUACCGAAUCGGGAGGGUUUUUUUGGGUUUUUGGGAAAGUAUUAUGUUACGCCGUUCGGAUCUGCACUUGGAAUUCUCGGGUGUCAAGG: -0.856
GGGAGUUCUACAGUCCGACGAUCCCUCAAGUCCUGUGCUACACAUCGUAUGUACCGAAUCGGGAGGGGAGGAGGGAAAGUAUUAUGUUACGCCGUUCGGAUCUGCACUUCCAGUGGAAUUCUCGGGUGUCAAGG: 0.676
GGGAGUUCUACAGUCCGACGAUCGCAUGAAGUAAAAACAAAUGGAAAUGCUUCGGAUAGUGGCAGGGGUGGGGGUUGCUAAGGAAAGGGUGGGAUGGGAGUGGGUAAAGAGUUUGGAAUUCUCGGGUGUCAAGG: 0.175
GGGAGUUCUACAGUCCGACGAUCAGUCCUGUGCUACACAUCGUAUGUACCGAAUCGGGUUUGGGUUUGGGUUUUUUUGGGAAAGUAUUAUGUUACGCCGUUCGGAUCUGCACUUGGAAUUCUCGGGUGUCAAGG: -0.861
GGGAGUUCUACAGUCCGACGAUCUUUGUGAGACAUGUGAAAGGAGGACAUGGUCACAGUCAUGGACAUGGACACGCUCACAGUCAUACACGUGGAAGUCAUGGACAUGGAAGAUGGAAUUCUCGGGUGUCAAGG: -3.56
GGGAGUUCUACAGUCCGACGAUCUGGUUCUGGCAUUUAUGACCCUUGUGAAAAAGAAGCCACUGAUGCUAUUGGGCAUCUAGACAGACAGCAACGGGAAGAUAUCACACAGAGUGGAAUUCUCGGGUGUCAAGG: -0.864
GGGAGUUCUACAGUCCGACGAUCAGUCCUGUGCUACACAUCGUAUGUACCGAAUCGGGCCCCGGGGCCCCGGGGCCCCGGAAAGUAUUAUGUUACGCCGUUCGGAUCUGCACUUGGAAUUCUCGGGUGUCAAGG: -0.0682
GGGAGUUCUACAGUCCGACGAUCGUCCUGUGCUACACAUCGUAUGUACCGAAUCGGGUUUUUGGGAAAGGGAAAAAAAGGGAAAGUAUUAUGUUACGCCGUUCGGAUCUGCACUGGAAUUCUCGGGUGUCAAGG: -0.598

For quick reference, copied from above (block 5):
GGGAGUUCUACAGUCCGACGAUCCUCAAGUCCUGUGCUACACAUCGUAUGUACCGAAUCGGGCCGGGCCGGGCCGGAAAGUAUUAUGUUACGCCGUUCGGAUCUGCACUUCCAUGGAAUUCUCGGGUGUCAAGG: 0.789
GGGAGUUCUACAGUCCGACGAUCAGUCCUGUGCUACACAUCGUAUGUACCGAAUCGGGAGGGUUUUUUUGGGUUUUUGGGAAAGUAUUAUGUUACGCCGUUCGGAUCUGCACUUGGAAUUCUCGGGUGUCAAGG: -0.856
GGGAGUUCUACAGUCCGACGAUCUUUGUGAGACAUGUGAAAGGAGGACAUGGUCACAGUCAUGGACAUGGACACGCUCACAGUCAUACACGUGGAAGUCAUGGACAUGGAAGAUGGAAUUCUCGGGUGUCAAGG: -3.56
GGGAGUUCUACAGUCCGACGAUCUGGUUCUGGCAUUUAUGACCCUUGUGAAAAAGAAGCCACUGAUGCUAUUGGGCAUCUAGACAGACAGCAACGGGAAGAUAUCACACAGAGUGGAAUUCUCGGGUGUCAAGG: -0.864
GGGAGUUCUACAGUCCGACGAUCAGUCCUGUGCUACACAUCGUAUGUACCGAAUCGGGCCCCGGGGCCCCGGGGCCCCGGAAAGUAUUAUGUUACGCCGUUCGGAUCUGCACUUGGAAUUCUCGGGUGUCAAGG: -0.0682
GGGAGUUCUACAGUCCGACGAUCUCAAGUCCUGUGCUACACAUCGUAUGUACCGAAUCGGGUUUGGGAAAGGGUGGGAAAGUAUUAUGUUACGCCGUUCGGAUCUGCACUUCCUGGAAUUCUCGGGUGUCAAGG: -0.953
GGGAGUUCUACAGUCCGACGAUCAGUCCUGUGCUACACAUCGUAUGUACCGAAUCGGGUUUGGGUUUGGGUUUUUUUGGGAAAGUAUUAUGUUACGCCGUUCGGAUCUGCACUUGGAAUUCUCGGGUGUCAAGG: -0.861
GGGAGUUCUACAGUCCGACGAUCCCUCAAGUCCUGUGCUACACAUCGUAUGUACCGAAUCGGGAGGGGAGGAGGGAAAGUAUUAUGUUACGCCGUUCGGAUCUGCACUUCCAGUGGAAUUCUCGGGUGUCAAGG: 0.676
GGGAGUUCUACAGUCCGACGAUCGCAUGAAGUAAAAACAAAUGGAAAUGCUUCGGAUAGUGGCAGGGGUGGGGGUUGCUAAGGAAAGGGUGGGAUGGGAGUGGGUAAAGAGUUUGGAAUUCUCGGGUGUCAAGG: 0.175
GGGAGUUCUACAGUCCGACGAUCUUGGCUACAAUGCAGAGACACAGAAACUACUAUGCAAGAAUGGGGAAACGCUGCUAGGAGCCGUGAACUUCUUUGUCUCUAGCAUCAACAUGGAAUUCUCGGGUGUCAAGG: -0.691
